Measured values from different studies.
Numbered parts are unrelated; each lists some results of a single study.

Block 1
Target: Prothrombin, mature alpha-thrombin (F2, Homo sapiens, UniProt P00734)
Method: aptamer microarray, sandwich
Form: DNA with 2'F-ANA
Medium: in vitro
Concentration: 200 nM
Notes: whole 15-mer aptamer, many near background
Together with: Cy3 exosite-II aptamer, 400 nM
Direction: higher = stronger binding
Strand: GGTTGGTGTGGTTGG
| Modification | mean fluorescence intensity |
| --- | --- |
| 2'F-ANA at 3 4 5 7 8 9 10 12 14 | 61.7 a.u. |
| 2'F-ANA at 2 5 7 8 9 10 | 71.1 a.u. |
| 2'F-ANA at 2 12 14 15 | 195 a.u. |
| 2'F-ANA at 1 2 4 6 7 9 10 12 15 | 61.6 a.u. |
| 2'F-ANA at 2 3 5 8 9 14 15 | 52.8 a.u. |

Block 2
Target: Histone acetyltransferase KAT6A, both winged helices, GST fusion (KAT6A, Homo sapiens, UniProt Q92794, residues 1-181)
Method: protein binding microarray
Form: double-stranded DNA, one strand shown
Medium: in vitro
Concentration: not given
Notes: 8-mer, flanks averaged, mean of 2 arrays, mostly near background
Reference: not given
Direction: higher = stronger binding
Construct (chain): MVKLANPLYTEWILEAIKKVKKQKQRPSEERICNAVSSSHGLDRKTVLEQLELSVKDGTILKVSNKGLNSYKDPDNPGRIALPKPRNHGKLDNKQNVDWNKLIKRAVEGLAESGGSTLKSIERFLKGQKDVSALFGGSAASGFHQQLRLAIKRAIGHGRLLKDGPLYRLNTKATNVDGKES
| Strand | E-score |
| --- | --- |
| AAAGAGCG | 0.188 |
| GAAACTGA | 0.0212 |
| TCAACCGA | 0.143 |
| TCCCGCAA | 0.194 |

Block 3
Target: Interferon regulatory factor 7, full length, phosphomimetic (IRF7, Homo sapiens, UniProt Q92985, residues 1-503, S471D/S472D/S475D/S476D/S477D/S483D/S484D/S487D)
Chain of UniProt Q92985 (whole entry, unmodified, looked up): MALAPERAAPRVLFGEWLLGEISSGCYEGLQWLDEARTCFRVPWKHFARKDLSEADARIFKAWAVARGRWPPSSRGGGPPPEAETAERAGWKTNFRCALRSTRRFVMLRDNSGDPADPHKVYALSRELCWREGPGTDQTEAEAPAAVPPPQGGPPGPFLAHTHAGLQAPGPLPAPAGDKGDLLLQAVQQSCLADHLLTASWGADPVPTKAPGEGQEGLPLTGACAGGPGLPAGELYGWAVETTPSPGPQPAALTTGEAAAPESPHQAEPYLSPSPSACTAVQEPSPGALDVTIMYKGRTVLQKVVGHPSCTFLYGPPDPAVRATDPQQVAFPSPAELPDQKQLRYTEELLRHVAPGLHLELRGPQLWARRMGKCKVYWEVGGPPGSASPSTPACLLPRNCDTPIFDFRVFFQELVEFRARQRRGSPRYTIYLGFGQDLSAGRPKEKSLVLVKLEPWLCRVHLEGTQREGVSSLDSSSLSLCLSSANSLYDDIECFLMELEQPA
Method: protein-binding microarray
Form: double-stranded DNA, one strand shown
Medium: in vitro
Concentration: 2200 nM top
Notes: 60-bp whole probe
Together with: salmon DNA 0.4 mg/ml
Reference: random background probes
Direction: higher = stronger binding
Shared flanks, not repeated: GCCTAGCAC … GTCTTGATTCGCTTGACGCTGCTG
| Strand | fitted relative affinity [z-score] |
| --- | --- |
| TTCAGTTTCTCTTTCCTTCTGTGCTAG | 7.83 |
| TCATTTCTCCCAAGTCTTACTGTGCTA | 2.24 |
| GACGGAGTGGGTATCGGGACGTGCTAG | -0.572 |
| GTAAACCATCCAAATGTTATGTGCTAG | 0.465 |
| TTAGTTTCCGGTTTCGGTTAGTGCTAG | 12.7 |
| GACGGTATTGGTTTCGGGACGTGCTAG | 3.39 |
| GATGGACTGGACTATCGGGACGTGCTA | -0.426 |

Mixed results
| Substance | target | assay | test system | setting | scale | measurement | result |
| --- | --- | --- | --- | --- | --- | --- | --- |
| PhoQ, residues 284 288 289 292 302 303 SNGLAW | PhoP, residues 12 14 15 18 19 IFFTR (Escherichia coli, UniProt P23836) | Sort-seq, measured: YFP reporter | E. coli | PhoQ-PhoP variant library, together with: 10 µM Mg2+ | reference: high Mg2+ state, higher = stronger signaling | fold induction | 2.01 |

Repeated from above (block 2):
| Strand | E-score |
| --- | --- |
| GAAACTGA | 0.0212 |
| TCCCGCAA | 0.194 |
